Measured values from different studies.
Lines come from different studies, so protocols differ.

`CC1(C)SC2C(NC(=O)C(NC(=O)C3=C(O)C(Cc4ccc([N+](=O)[O-])cc4)NC3=O)c3ccccc3)C(=O)N2C1C(=O)O` (stereo not drawn) gave an MIC of 50 µg/mL (Escherichia coli; broth microdilution; Keio mutant JW0146-2; 18 h, ferric hydroxamate uptake gene).
For `CC(C)C[C@H](NC(=O)[C@H](CCCNC(=N)N)NC(=O)[C@H](Cc1c[nH]c2ccccc12)NC(=O)[C@H](CCCNC(=N)N)NC(=O)[C@H](Cc1c[nH]c2ccccc12)NC(=O)[C@H](Cc1c[nH]c2ccccc12)NC(=O)[C@H](Cc1c[nH]c2ccccc12)NC(=O)[C@H](CCCNC(=N)N)NC(=O)[C@H](Cc1c[nH]c2ccccc12)NC(=O)[C@H](CCCNC(=N)N)NC(=O)CN)C(N)=O`, the MIC was 16 µM (Candida albicans; broth microdilution; 14936, RPMI 1640-MOPS; 48 h, 30 °C).
For `CC1(C)SC2C(NC(=O)C(NC(=O)C3=C(O)C(c4ccccc4)NC3=O)c3ccccc3)C(=O)N2C1C(=O)O` (stereo not drawn), the MIC was 12.5 µg/mL (Escherichia coli; broth microdilution; Keio mutant JW5195-1; 18 h).
The MIC of `CC(C)C[C@H](NC(=O)[C@H](C)NC(=O)[C@@H](NC(=O)[C@H](CCCNC(=N)N)NC(=O)[C@H](CC(C)C)NC(=O)[C@H](Cc1c[nH]c2ccccc12)NC(=O)[C@@H]1CCCN1C(=O)[C@@H](N)CCCCN)C(C)C)C(=O)N[C@@H](CS)C(=O)N1CCC[C@H]1C(=O)NCC(=O)O` is reported as 32 µM (Staphylococcus intermedius; broth microdilution; S).
`N=C(N)NCCC[C@H](NC(=O)[C@H](Cc1c[nH]c2ccccc12)NC(=O)[C@H](CCCNC(=N)N)NC(=O)[C@H](Cc1c[nH]c2ccccc12)NC(=O)[C@H](Cc1c[nH]c2ccccc12)NC(=O)[C@H](Cc1c[nH]c2ccccc12)NC(=O)[C@H](CCCNC(=N)N)NC(=O)[C@H](Cc1c[nH]c2ccccc12)NC(=O)[C@H](CCCNC(=N)N)NC(=O)CN)C(N)=O` has an MIC of 8 µM (Candida albicans; broth microdilution; alveolar fluid isolate, RPMI 1640-MOPS; 48 h, 30 °C).
The MIC of `CC1(C)SC2C(NC(=O)C(NC(=O)C3=C(O)C4(CC4)NC3=O)c3ccccc3)C(=O)N2C1C(=O)O` (stereo not drawn) is reported as over 200 µg/mL (Escherichia coli; broth microdilution; ATCC 35218, low-level TEM-1; no clavulanic acid).
`C[C@H](NC(=O)[C@H](CCCNC(=N)N)NC(=O)[C@H](Cc1c[nH]c2ccccc12)NC(=O)[C@H](CCCNC(=N)N)NC(=O)[C@H](Cc1c[nH]c2ccccc12)NC(=O)[C@H](Cc1c[nH]c2ccccc12)NC(=O)[C@H](Cc1c[nH]c2ccccc12)NC(=O)[C@H](CCCNC(=N)N)NC(=O)[C@H](Cc1c[nH]c2ccccc12)NC(=O)[C@H](CCCNC(=N)N)NC(=O)CN)C(N)=O` has an MIC of 8 µM (Candida albicans; broth microdilution; 58288, RPMI 1640-MOPS; 48 h, 30 °C).
The MIC of `CC[C@H](C)[C@H](NC(=O)[C@H](C)NC(=O)[C@H](CCCCN)NC(=O)[C@H](CC(C)C)NC(=O)[C@H](C)NC(=O)[C@@H](NC(=O)[C@H](Cc1c[nH]cn1)NC(=O)[C@H](CC(C)C)NC(=O)[C@@H](NC(=O)[C@@H](NC(=O)[C@H](CCCCN)NC(=O)[C@H](C)NC(=O)[C@H](C)NC(=O)[C@H](CO)NC(=O)[C@H](CCCCN)NC(=O)[C@H](Cc1ccccc1)NC(=O)[C@@H](NC(=O)[C@H](CCCCN)NC(=O)[C@H](CC(C)C)NC(=O)[C@H](Cc1ccccc1)NC(=O)[C@H](CO)NC(=O)[C@H](CCCCN)NC(=O)[C@H](Cc1c[nH]c2ccccc12)NC(=O)[C@H](CCCCN)NC(C)=O)[C@@H](C)O)[C@@H](C)O)C(C)C)[C@@H](C)O)C(=O)N[C@@H](CO)C(=O)N[C@@H](CO)C(N)=O` is reported as 12.3 µg/mL (Enterobacter aerogenes; geometric mean of 40 strains).
`CC(C)C[C@H](NC(=O)[C@H](CCCNC(=N)N)NC(=O)[C@H](Cc1c[nH]c2ccccc12)NC(=O)[C@H](CCCNC(=N)N)NC(=O)[C@H](Cc1c[nH]c2ccccc12)NC(=O)[C@H](Cc1c[nH]c2ccccc12)NC(=O)[C@H](Cc1c[nH]c2ccccc12)NC(=O)[C@H](CCCNC(=N)N)NC(=O)[C@H](Cc1c[nH]c2ccccc12)NC(=O)[C@@H](N)CCCNC(=N)N)C(N)=O` has an MIC of 32 µM (Candida albicans; broth microdilution; CGMCC 2.209, RPMI 1640-MOPS; 48 h, 30 °C, together with: CaCl2 2 mM).
With `CC(C)C[C@@H](NC(=O)[C@H](C)NC(=O)CNC(=O)[C@@H](NC=O)C(C)C)C(=O)N[C@@H](C)C(=O)N[C@@H](C(=O)N[C@H](C(=O)N[C@@H](C(=O)N[C@@H](Cc1c[nH]c2ccccc12)C(=O)N[C@H](CC(C)C)C(=O)N[C@@H](Cc1cccc2cc[nH]c12)C(=O)N[C@H](CC(C)C)C(=O)N[C@@H](Cc1c[nH]c2ccccc12)C(=O)N[C@H](CC(C)C)C(=O)N[C@@H](Cc1c[nH]c2ccccc12)C(=O)NCCO)C(C)C)C(C)C)C(C)C` the MIC was 1.1 µM (Listeria monocytogenes; broth microdilution; 10403S).
`N=C(N)NCCC[C@H](NC(=O)CN)C(=O)N[C@@H](Cc1c[nH]c2ccccc12)C(=O)N[C@@H](CCCNC(=N)N)C(=O)N[C@@H](Cc1c[nH]c2ccccc12)C(=O)N[C@@H](Cc1c[nH]c2ccccc12)C(=O)N[C@@H](Cc1c[nH]c2ccccc12)C(=O)N[C@@H](CCCNC(=N)N)C(=O)N[C@@H](Cc1c[nH]c2ccccc12)C(=O)N[C@@H](CCCNC(=N)N)C(=O)N[C@@H](Cc1c[nH]c2ccccc12)C(N)=O` has an MIC of 8 µM (Candida albicans; broth microdilution; 56467, RPMI 1640-MOPS; 48 h, 30 °C).
`CC1NC(=O)C(C(=O)NC(C(=O)NC2C(=O)N3C2SC(C)(C)C3C(=O)O)c2ccccc2)=C1O` (stereo not drawn) gave an MIC of 50 µg/mL (Escherichia coli; broth microdilution; Keio mutant JW5195-1; 18 h).
`N=C(N)NCCC[C@H](NC(=O)[C@H](Cc1c[nH]c2ccccc12)NC(=O)[C@H](CCCNC(=N)N)NC(=O)[C@H](Cc1c[nH]c2ccccc12)NC(=O)[C@H](Cc1c[nH]c2ccccc12)NC(=O)[C@H](Cc1c[nH]c2ccccc12)NC(=O)[C@H](CCCNC(=N)N)NC(=O)[C@H](Cc1c[nH]c2ccccc12)NC(=O)[C@@H](N)CCCNC(=N)N)C(=O)N[C@@H](Cc1ccccc1)C(N)=O` gave an MIC of 16 µM (Candida albicans; broth microdilution; CGMCC 2.209, RPMI 1640-MOPS; 48 h, 30 °C, together with: CaCl2 2 mM).
For `N=C(N)NCCC[C@H](NC(=O)CCCCCNC(=O)[C@H](CCCNC(=N)N)NC(=O)[C@H](CCCNC(=N)N)NC(=O)CCCCCNC(=O)[C@H](CCCNC(=N)N)NC(=O)[C@H](CCCNC(=N)N)NC(=O)CCCCCNC(=O)[C@H](CCCNC(=N)N)NC(=O)[C@H](CCCNC(=N)N)NC(=O)CCCCCNC(=O)[C@@H](N)CCCNC(=N)N)C(=O)NCCCCCC(=O)NCCC(=O)O`, the MIC was over 192 µM (Escherichia coli; broth microdilution; ATCC 25922, Mueller-Hinton broth; together with: LPS O55:B5 1 mg/mL).
With `CC(C)C[C@H](NC(=O)[C@@H](NC(=O)[C@H](CCCNC(=N)N)NC(=O)[C@H](CCC(N)=O)NC(=O)[C@H](Cc1ccccc1)NC(=O)[C@H](Cc1ccc(O)cc1)NC(=O)[C@H](CC(N)=O)NC(=O)[C@H](Cc1c[nH]c2ccccc12)NC(=O)[C@@H](NC(=O)[C@H](CCCNC(=N)N)NC(=O)[C@H](CCCCN)NC(=O)[C@@H](N)Cc1ccccc1)C(C)C)C(C)C)C(=O)N[C@H](C(=O)N[C@@H](CCCCN)C(=O)N[C@@H](CCCCN)C(=O)N[C@@H](Cc1ccc(O)cc1)C(=O)N[C@@H](C)C(N)=O)C(C)C` the MIC was over 100 µM (Enterobacter sp.; broth dilution; KCTC 2625).
With `CC1(C)SC2C(NC(=O)C(NC(=O)C3=C(O)CNC3=O)c3ccccc3)C(=O)N2C1C(=O)O` (stereo not drawn) the MIC was over 200 µg/mL (Escherichia coli; broth microdilution; isolate IU 356 A, KPC-3, VIM-1, TEM; no clavulanic acid).
The MIC of `CC(C)C[C@H](NC(=O)[C@@H](NC(=O)[C@H](CCCNC(=N)N)NC(=O)[C@H](CCC(N)=O)NC(=O)[C@H](Cc1ccccc1)NC(=O)[C@H](Cc1ccc(O)cc1)NC(=O)[C@H](CC(N)=O)NC(=O)[C@H](Cc1c[nH]c2ccccc12)NC(=O)[C@@H](NC(=O)[C@H](CCCNC(=N)N)NC(=O)[C@H](CCCCN)NC(=O)[C@@H](N)Cc1ccccc1)C(C)C)C(C)C)C(=O)N[C@H](C(=O)N[C@@H](CCCCN)C(=O)N[C@@H](CCCCN)C(N)=O)C(C)C` is reported as over 100 µM (Enterobacter sp.; broth dilution; KCTC 2625).
For `CNC(C)[C@@H]1CC[C@@H](N)[C@@H](O[C@H]2[C@H](O)[C@@H](O[C@H]3OC[C@](C)(O)[C@H](NC)[C@H]3O)[C@H](N)C[C@@H]2N)O1` (stereo partly drawn), the MIC was 4 µg/mL (Proteus mirabilis; broth microdilution; 18 h).
`CC1(C)S[C@@H]2[C@H](NC(=O)[C@H](N)c3ccccc3)C(=O)N2[C@H]1C(=O)O` has an MIC of 6.25 µg/mL (Escherichia coli; broth microdilution; Keio mutant JW0146-2; 18 h, ferric hydroxamate uptake gene).
With `N=C(N)NCCC[C@H](NC(=O)CN)C(=O)N[C@@H](Cc1c[nH]c2ccccc12)C(=O)N[C@@H](CCCNC(=N)N)C(=O)N[C@@H](Cc1c[nH]c2ccccc12)C(=O)N[C@@H](Cc1c[nH]c2ccccc12)C(=O)N[C@@H](Cc1c[nH]c2ccccc12)C(=O)N[C@@H](CCCNC(=N)N)C(=O)N[C@@H](Cc1c[nH]c2ccccc12)C(=O)N[C@@H](CCCNC(=N)N)C(=O)N[C@@H](Cc1ccccc1)C(N)=O` the MIC was 8 µM (Candida albicans; broth microdilution; 58288, RPMI 1640-MOPS; 48 h, 30 °C).
`Oc1c(Cl)cc(Cl)cc1-c1[nH]c(Cl)c(Cl)c1Cl` has an MIC of 16 µM (Providencia alcalifaciens; ATCC 9886).

Excerpt of the above:
With `CC1(C)SC2C(NC(=O)C(NC(=O)C3=C(O)CNC3=O)c3ccccc3)C(=O)N2C1C(=O)O` (stereo not drawn) the MIC was over 200 µg/mL (Escherichia coli; broth microdilution; isolate IU 356 A, KPC-3, VIM-1, TEM; no clavulanic acid).
`N=C(N)NCCC[C@H](NC(=O)[C@H](Cc1c[nH]c2ccccc12)NC(=O)[C@H](CCCNC(=N)N)NC(=O)[C@H](Cc1c[nH]c2ccccc12)NC(=O)[C@H](Cc1c[nH]c2ccccc12)NC(=O)[C@H](Cc1c[nH]c2ccccc12)NC(=O)[C@H](CCCNC(=N)N)NC(=O)[C@H](Cc1c[nH]c2ccccc12)NC(=O)[C@H](CCCNC(=N)N)NC(=O)CN)C(N)=O` has an MIC of 8 µM (Candida albicans; broth microdilution; alveolar fluid isolate, RPMI 1640-MOPS; 48 h, 30 °C).
The MIC of `CC(C)C[C@H](NC(=O)[C@@H](NC(=O)[C@H](CCCNC(=N)N)NC(=O)[C@H](CCC(N)=O)NC(=O)[C@H](Cc1ccccc1)NC(=O)[C@H](Cc1ccc(O)cc1)NC(=O)[C@H](CC(N)=O)NC(=O)[C@H](Cc1c[nH]c2ccccc12)NC(=O)[C@@H](NC(=O)[C@H](CCCNC(=N)N)NC(=O)[C@H](CCCCN)NC(=O)[C@@H](N)Cc1ccccc1)C(C)C)C(C)C)C(=O)N[C@H](C(=O)N[C@@H](CCCCN)C(=O)N[C@@H](CCCCN)C(N)=O)C(C)C` is reported as over 100 µM (Enterobacter sp.; broth dilution; KCTC 2625).
